{"data": "Measured values pooled from the literature", "note": "Each line is one published result; not all experiments were run side by side. ± gives the spread as reported."}
{"Compound": "Cc1ccc2[nH]c(=O)cc(NCCO)c2c1", "cell line": "COS-7 (untransfected)", "setting": "500 µM, unit not given", "scale": "reference: 3 µM ionomycin", "endpoint": "calcium mobilisation signal", "value": "1.9 ± 0.76"}
{"Compound": "O=C(CC(=O)Nc1ccc2[nH]nc(/C=C/c3ccccn3)c2c1)Nc1cccc(F)c1", "cell line": "BaF3", "assay": "cell growth or viability, CCK-8", "endpoint": "GI50", "value": "> 10 µM"}
{"Compound": "Cn1ncc2cc(-c3cncc(Cl)c3N3CCC4(CCNC4=O)CC3)ccc21", "cell line": "LS174T", "assay": "gene expression, microarray, item: EXD3 mRNA", "setting": "concentration not given, 4 h", "scale": "reference: untreated cells", "endpoint": "log2 fold change", "value": -1.01}
{"Compound": "C=CC(=O)N1[C@H](c2ccc3c(c2)OCO3)c2[nH]c3ccccc3c2C[C@H]1C(=O)N1CCOCC1", "cell line": "22Rv1", "assay": "ATAC-seq", "setting": "concentration not given, FOXA1-binding sites, log2FC 1", "endpoint": "increased accessible sites", "value": "542 sites"}
{"Compound": "CNS(=O)(=O)Nc1nccc(Cc2c(C)c3ccc(Oc4ncccc4F)cc3oc2=O)c1F", "cell line": "NCI-H1703", "assay": "cell viability", "setting": "7 days", "endpoint": "IC50", "value": "> 1 µM"}
{"Compound": "CC12CCCC(n3cc(CN4CCS(=O)(=O)CC4)nn3)(C1)C1CC(C)(C)C1CC2 (stereo not shown)", "cell line": "HT-29", "assay": "cell growth or viability, CCK-8", "setting": "50 µM", "endpoint": "inhibition", "value": "40.4%"}
{"Compound": "C=CCc1c(O)cc2c(c1O)C(=O)CC(c1ccc(O)cc1)O2 (stereo not shown)", "cell line": "HeLa", "assay": "cell growth or viability, MTT", "setting": "1.563 µM, 48 h", "endpoint": "inhibition", "value": "2.1%"}
{"Compound": "CC(=O)N[C@@H](CC(=O)O)C(=O)N[C@@H](CCC(=O)O)C(=O)N[C@@H](CC(C)C)C(=O)N[C@@H](CC(=O)O)C(=O)COC(=O)c1c(C)cccc1C", "cell line": "THP-1 cells, LPS-primed", "assay": "pyroptosis, LDH release", "setting": "25 µM, LPS 1 µg/mL, 4 h, with: nigericin 5 µM, 2 h", "endpoint": "cell lysis", "value": "62.2%"}
{"Compound": "CCN(C(=O)c1cc(F)ccc1Oc1nncnc1N1CCC2(C1)CN([C@H](CCCN(C)CCOC)C(C)C)C2)C(C)C", "cell line": "MG-63", "assay": "cell growth or viability", "setting": "72 h", "endpoint": "GI50", "value": "> 10 µM"}
{"Compound": "C[C@@H]1CC[C@@H]([C@@](O)(COCc2ccccc2)Cn2cnc3ccccc32)[C@H](OCc2ccccc2)C1", "cell line": "HeLa", "assay": "cell growth or viability, MTT", "setting": "10 µM, 72 h", "endpoint": "inhibition", "value": "68.8%"}
{"Compound": "O=S(=O)(N[C@H]1CCO[C@@H](C2c3ccc(F)cc3CCc3cc(F)ccc32)C1)c1ccc(OC(F)(F)F)cc1", "cell line": "D425", "assay": "immunoblot, item: CIP2A", "setting": "concentration not given", "endpoint": "protein level", "value": "decreased"}
{"Compound": "CCC(=CCc1c(O)cc2c(c1O)C(=O)CC(c1ccc(O)c(OC)c1)O2)CC (stereo not shown)", "cell line": "HeLa", "assay": "cell growth or viability, MTT", "setting": "100 µM, 48 h", "endpoint": "inhibition", "value": "100%"}
{"Compound": "Cc1n[nH]c(C)c1CCCOc1cc(C(=O)NCCCCC(NC(=O)CN2CCN(CC(=O)[O-])CCN(CC(=O)[O-])CCN(CC(=O)[O-])CC2)C(=O)NCC2CCC(C(=O)NC(Cc3ccc4ccccc4c3)C(=O)NCCCCC(NC(=O)NC(CCC(=O)O)C(=O)O)C(=O)O)CC2)ccc1F.[177Lu+3] (stereo not shown)", "cell line": "22Rv1", "setting": "24 h", "scale": "reference: added dose", "endpoint": "uptake", "value": "8.63 ± 0.18%"}
{"Compound": "CN1CCCNC(=O)c2cccc(c2)C(=O)NCCCN(C)CCCNc2cccc3c2C(=O)c2cccc(c2C3=O)NCCC1", "cell line": "SAS", "assay": "RNA-seq, item: MT-ATP8 mRNA", "setting": "1 µM, 6 h", "scale": "reference: untreated cells", "endpoint": "log2 fold change", "value": -0.964}
{"Compound": "Cc1ncsc1-c1ccc(C(C)NC(=O)C2CC(O)CN2C(=O)C(NC(=O)CCCCCCCCCCN2CCCC(Nc3ncc(Cl)c(Nc4ccccc4S(=O)(=O)C(C)C)n3)C2)C(C)(C)C)cc1 (stereo not shown)", "cell line": "22Rv1", "assay": "RNA-seq, item: MCF2L mRNA", "setting": "concentration not given", "scale": "reference: DMSO", "endpoint": "log2 fold change", "value": -1.33}
{"Compound": "Cc1c(Cl)cccc1Nc1ccccc1C(=O)[Se]CC(=O)Nc1cccc(C(F)(F)F)c1", "cell line": "NCI60 leukemia subpanel", "assay": "cell growth", "setting": "10 µM, 48 h, one-dose", "endpoint": "mean growth percent", "value": "-73.7%"}
{"Compound": "N#C[C@@H]1CC(F)(F)CN1C(=O)CNC(=O)c1ccnc2ccc(OCCCN3CCN(C(=O)CCc4ccc5c(c4)CN4CCN(Cc6cc(CCC(=O)O)ccc6O)CC(=O)[O][Al-]([18F])([O]C(=O)C4)[O]5)CC3)cc12 (stereo partly shown)", "cell line": "HT1080 cells expressing human FAP", "setting": "90 min, 37 °C", "endpoint": "internalized fraction", "value": "89.2 ± 0.6%"}
{"Compound": "C=CC(=O)N1[C@@H](c2ccc3c(c2)OCO3)c2[nH]c3ccccc3c2C[C@H]1C(=O)NC1CC1", "cell line": "rat DRG neurons", "setting": "10 µM, 48 h, with: vincristine 40 nM", "endpoint": "mean neuron degeneration", "value": "17.1%"}
{"Compound": "CC(=O)N[C@@H](CC(=O)O)C(=O)N[C@@H](CO)C(=O)N[C@H](C(=O)N[C@@H](CC(=O)O)C(=O)COC(=O)c1c(C)cccc1C)C(C)C", "cell line": "THP-1 cells, LPS-primed", "assay": "pyroptosis, LDH release", "setting": "25 µM, LPS 1 µg/mL, 4 h, with: nigericin 5 µM, 2 h", "endpoint": "cell lysis", "value": "67.4%"}
{"note": "Repeated from above:"}
{"Compound": "C=CC(=O)N1[C@H](c2ccc3c(c2)OCO3)c2[nH]c3ccccc3c2C[C@H]1C(=O)N1CCOCC1", "cell line": "22Rv1", "assay": "ATAC-seq", "setting": "concentration not given, FOXA1-binding sites, log2FC 1", "endpoint": "increased accessible sites", "value": "542 sites"}
{"Compound": "CNS(=O)(=O)Nc1nccc(Cc2c(C)c3ccc(Oc4ncccc4F)cc3oc2=O)c1F", "cell line": "NCI-H1703", "assay": "cell viability", "setting": "7 days", "endpoint": "IC50", "value": "> 1 µM"}
{"Compound": "CC12CCCC(n3cc(CN4CCS(=O)(=O)CC4)nn3)(C1)C1CC(C)(C)C1CC2 (stereo not shown)", "cell line": "HT-29", "assay": "cell growth or viability, CCK-8", "setting": "50 µM", "endpoint": "inhibition", "value": "40.4%"}
